{"data": "Published values pooled from the literature", "note": "A part holds a random share of what one study measured. “And” joins repeats or separate records; there may be more than shown."}
{"data": "Set 1", "SMILES": "CCN1/C(=C/C=C2\\CCCC(/C=C/C3=[N+](CC)c4ccccc4C3(C)C)=C2NCCCCCCCCN2CCC(Nc3nc4ccccc4n3Cc3ccc(F)cc3)CC2)C(C)(C)c2ccccc21", "cell line": "U-87 MG", "concentration": "concentration not given", "reference": "DMSO"}
{"test": "measured: NME4 mRNA", "log2 fold change": -0.809}
{"test": "measured: NIPSNAP3A mRNA", "log2 fold change": -0.946}
{"test": "measured: MYCL mRNA", "log2 fold change": 2.99}
{"test": "measured: CXCL2 mRNA", "log2 fold change": 2.51}
{"test": "measured: PDS5B mRNA", "log2 fold change": -0.934}
{"test": "measured: LRRC25 mRNA", "log2 fold change": -2.89}
{"test": "measured: CD55 mRNA", "log2 fold change": 1.29}
{"test": "measured: FGF2 mRNA", "log2 fold change": 1.66}
{"test": "measured: CXCL8 mRNA", "log2 fold change": 3.69}
{"test": "measured: KNL1 mRNA", "log2 fold change": -2.28}
{"test": "measured: TUBB2A mRNA", "log2 fold change": -1.18}
{"data": "Set 2", "cell line": "Gaucher fibroblasts L444P/L444P", "method": "4-MUG hydrolysis, cell lysate", "concentration": "0.1 µM", "reference": "DMSO"}
{"SMILES": "Cc1ccc(Nc2nc(NCCN3CCOCC3)nc(N3CCOCC3)n2)cc1", "GCase activity": "96.7% and 93.8% and 108% and 105% and 104%"}
{"SMILES": "c1ccc(Nc2nc(NCCN3CCOCC3)nc(N3CCOCC3)n2)cc1", "GCase activity": "92.8% and 99.9% and 101% and 103% and 102% and 94.7%"}
{"SMILES": "Ic1ccc(Nc2nc(NCCN3CCOCC3)nc(N3CCCC3)n2)cc1", "GCase activity": "100% and 89.1% and 99.2% and 103%"}
{"SMILES": "Ic1ccc(Nc2nc(NCCN3CCOCC3)nc(N3CCCCC3)n2)cc1", "GCase activity": "102% and 99.8% and 96.4% and 90.8% and 94.8% and 100%"}
{"SMILES": "Ic1ccc(Nc2nc(NCCN3CCOCC3)nc(N3CCNCC3)n2)cc1", "GCase activity": "98.8% and 104% and 103% and 96.3% and 99.9% and 102%"}
{"SMILES": "Ic1ccc(Nc2nc(NCCCN3CCOCC3)nc(N3CCOCC3)n2)cc1", "GCase activity": "103% and 106% and 105% and 116% and 110%"}
{"SMILES": "Ic1ccc(Nc2nc(NCCc3c[nH]c4ccccc34)nc(NCCN3CCOCC3)n2)cc1", "GCase activity": "101% and 102% and 94% and 99.7%"}
{"SMILES": "Fc1ccc(Nc2nc(NCCN3CCOCC3)nc(N3CCOCC3)n2)cc1", "GCase activity": "96% and 93.6% and 105% and 95.3% and 104% and 99.7%"}
{"data": "Set 3", "cell line": "MDA-MB-468", "observed": "cell viability", "method": "CellCounting-Lite", "concentration": "0.9145 nM", "temperature": "37 °C", "reading": "higher = more viable cells"}
{"SMILES": "CCn1cnc2c(NCc3nc4cc(Cl)c(Cl)cc4[nH]3)nc(N3CCN(C(=O)c4ccccn4)CC3)nc21", "luminescence signal": "331000 a.u. and 421000 a.u. and 383000 a.u."}
{"SMILES": "CC(=O)N1CCN(c2nc(NCc3nc4cc(Cl)c(Cl)cc4[nH]3)c3ncn(C(C)C)c3n2)CC1", "luminescence signal": "491000 a.u. and 504000 a.u. and 482000 a.u."}
{"SMILES": "CCn1cnc2c(NCc3nc4cc(Cl)c(Cl)cc4[nH]3)nc(N3CCN(c4ccccn4)CC3)nc21", "luminescence signal": "421000 a.u. and 443000 a.u. and 463000 a.u."}
{"SMILES": "CCn1cnc2c(NCc3nc4cc(Cl)c(Cl)cc4[nH]3)nc(N3CCN(C(=O)c4ccccc4)CC3)nc21", "luminescence signal": "434000 a.u. and 457000 a.u. and 478000 a.u."}
{"SMILES": "CC(=O)N1CCN(c2nc(NCc3nc4cc(Cl)c(Cl)cc4[nH]3)c3ncn(C)c3n2)CC1", "luminescence signal": "402000 a.u. and 505000 a.u. and 446000 a.u."}
{"SMILES": "CCCCOc1nc(NCc2nc3cc(Cl)c(Cl)cc3[nH]2)c2ncn(CC)c2n1", "luminescence signal": "487000 a.u. and 510000 a.u. and 451000 a.u."}
{"SMILES": "CC(=O)N1CCN(c2nc(NCc3nc4cc(Cl)c(Cl)cc4[nH]3)c3ncn(-c4cnn(C)c4)c3n2)CC1", "luminescence signal": "493000 a.u. and 533000 a.u. and 480000 a.u."}
{"SMILES": "CCn1cnc2c(NCc3nc4cc(Cl)c(Cl)cc4[nH]3)nc(N3CCN(C(=O)c4cccnc4)CC3)nc21", "luminescence signal": "411000 a.u. and 366000 a.u. and 317000 a.u."}
{"SMILES": "CCn1cnc2c(NCc3nc4cc(Cl)c(Cl)cc4[nH]3)nc(N3CCC(NC(C)=O)CC3)nc21", "luminescence signal": "450000 a.u. and 449000 a.u. and 466000 a.u."}
{"data": "Single results of other studies", "PKMYT1": "Membrane-associated tyrosine- and threonine-specific cdc2-inhibitory kinase (PKMYT1, Homo sapiens, UniProt Q99640)", "UniProt Q99640, sequence (whole entry, looked up)": "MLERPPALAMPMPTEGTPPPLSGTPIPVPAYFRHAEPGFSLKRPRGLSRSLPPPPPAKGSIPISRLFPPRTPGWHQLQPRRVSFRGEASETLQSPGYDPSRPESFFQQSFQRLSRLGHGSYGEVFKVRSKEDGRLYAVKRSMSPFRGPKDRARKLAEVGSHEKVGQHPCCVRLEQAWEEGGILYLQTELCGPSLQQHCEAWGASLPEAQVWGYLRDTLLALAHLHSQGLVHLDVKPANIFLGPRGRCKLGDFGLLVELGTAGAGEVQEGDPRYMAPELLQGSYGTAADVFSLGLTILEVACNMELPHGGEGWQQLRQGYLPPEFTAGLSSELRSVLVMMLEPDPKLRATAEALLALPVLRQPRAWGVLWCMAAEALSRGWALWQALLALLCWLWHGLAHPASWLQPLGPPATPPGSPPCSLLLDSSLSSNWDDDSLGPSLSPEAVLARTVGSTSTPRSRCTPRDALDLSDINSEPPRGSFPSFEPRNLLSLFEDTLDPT"}
{"SMILES": "Cc1ncsc1-c1ccc(C2(NC(=O)C3CC(O)CN3C(=O)C(NC(=O)c3ccc(COc4c(-c5c(C)c(F)cc6[nH]ncc56)c(C5CC5)cc5c(N6CC7CC6CN7)nc(OC6CCOCC6)nc45)cc3)C(C)(C)C)CC2)cc1 (stereo not drawn)", "target or system": "AsPC-1", "test": "in-cell ELISA", "conditions": "300 pM, individual replicates", "endpoint": "phospho-ERK1/2 level", "result": "101% and 99.1% and 89.2% and 105%"}
{"SMILES": "Cc1ccc(O)c(C)c1-c1cnc2[nH]c(-c3cnc(N4CCC5(CC4)CC(N4CCN(c6ccc(NC7CCC(=O)NC7=O)cc6F)CC4)CO5)nc3)cc2c1C#N (stereo not drawn)", "system": "female CD-1 mouse, plasma", "conditions": "oral, 60 mg/kg", "endpoint": "bioavailability", "result": "50%"}
{"SMILES": "Cc1ncsc1-c1ccc(C(CO)NC(=O)C2CC(O)CN2C(=O)C(C(C)C)n2cc(-c3ccc(COc4c(-c5c(C)c(F)cc6[nH]ncc56)c(C5CC5)cc5c(N6CC7CC6CN7)nc(OC6CCOCC6)nc45)cc3)nn2)cc1 (stereo not drawn)", "target or system": "GTPase KRas, GDP-bound (KRAS, Homo sapiens, UniProt P01116, G12D)", "test": "SPR, single-cycle", "system": "immobilized KRAS G12D", "conditions": "binary", "endpoint": "kon", "result": "150000 M⁻¹ s⁻¹ and 208000 M⁻¹ s⁻¹"}
{"SMILES": "Cc1ccc(O)c(C)c1-c1cnc2[nH]c(-c3cnc(N4CCC(CCN5CCN(c6cc7c(cc6F)c(N6CCC(=O)NC6=O)nn7C)CC5)CC4)nc3)cc2c1C#N", "target or system": "PKMYT1", "test": "degrader, automated immunoblot (Jess)", "conditions": "0.01 nM", "how to read": "reference: GAPDH", "endpoint": "protein level", "result": "94.1%"}
{"SMILES": "Cc1ncsc1-c1ccc(C2(NC(=O)C3CC(O)CN3C(=O)C(NC(=O)c3ccc(COc4c(-c5c(C)c(F)cc6[nH]ncc56)c(C5CC5)cc5c(N6CC7CC6CN7)nc(OC6CCOCC6)nc45)cc3)C(C)C)CC2)cc1 (stereo not drawn)", "target or system": "AsPC-1", "test": "in-cell ELISA", "conditions": "300 nM, individual replicates", "endpoint": "phospho-ERK1/2 level", "result": "31.7% and 22% and 58.7% and 30.8% and 53.2% and 28.6%"}
{"SMILES": "Cc1ccc(O)c(C)c1-c1cnc2[nH]c(-c3cnc(N4CCC(CN5CCN(c6ccc7c(c6)C(=O)N(C6CCC(=O)NC6=O)C7=O)CC5)CC4)nc3)cc2c1C#N (stereo not drawn)", "target or system": "PKMYT1", "test": "immunoblotting", "system": "HCC1569", "conditions": "1 µM, 24 h", "endpoint": "remaining protein level", "result": "7.07%"}
{"SMILES": "Cc1ncsc1-c1ccc(C(CO)NC(=O)C2CC(O)CN2C(=O)C(NC(=O)c2ccc(COc3c(-c4c(C)c(F)cc5[nH]ncc45)c(C4CC4)cc4c(N5CC6CC5CN6)nc(OC5CCOCC5)nc34)cc2)C(C)C)cc1 (stereo not drawn)", "target or system": "GTPase KRas (KRAS, Homo sapiens, UniProt P01116, G12D)", "test": "degrader, In-Cell ELISA", "system": "AsPC-1 (KRAS G12D)", "conditions": "24 h, geometric mean", "endpoint": "DC50", "result": "106 nM"}
{"SMILES": "Cc1ncc(-c2cc3c(Cl)c(-c4c(C)ccc(O)c4C)cnc3[nH]2)cn1", "target or system": "PKMYT1", "test": "binding, HTRF", "conditions": "13.72 nM", "endpoint": "inhibition", "result": "-0.2% and -8.52%"}
{"note": "Some of these lines once more (set 3):"}
{"SMILES": "CCn1cnc2c(NCc3nc4cc(Cl)c(Cl)cc4[nH]3)nc(N3CCN(C(=O)c4ccccn4)CC3)nc21", "luminescence signal": "331000 a.u. and 421000 a.u. and 383000 a.u."}
{"SMILES": "CC(=O)N1CCN(c2nc(NCc3nc4cc(Cl)c(Cl)cc4[nH]3)c3ncn(C(C)C)c3n2)CC1", "luminescence signal": "491000 a.u. and 504000 a.u. and 482000 a.u."}
{"SMILES": "CCn1cnc2c(NCc3nc4cc(Cl)c(Cl)cc4[nH]3)nc(N3CCN(c4ccccn4)CC3)nc21", "luminescence signal": "421000 a.u. and 443000 a.u. and 463000 a.u."}
